Measured values gathered from unrelated publications.
Parts stem from different laboratories: compare values within a part only.

Series 1
Target: Replicase polyprotein 1ab, main protease (rep, Severe acute respiratory syndrome coronavirus 2, UniProt P0DTD1)
Observed: enzyme activity
Tested at: 20 µM
Notes: with DTT
With S=C=Nc1cccc(NC(=S)NCCCCNC(=S)Nc2cccc(N=C=S)c2)c1 the inhibition was 92%.
With CCCOc1ccc(CSc2nnc[nH]2)cc1 the inhibition was 32.8%.
With CC[C@H](CO)Nc1nc(NCc2ccc(-c3ccccn3)cc2)c2ncn(C(C)C)c2n1 the inhibition was 1.6%.
The inhibition of COc1ccc(C(=O)n2nc(-c3ccccc3)nc2N)cc1OC is reported as 31.5%.

Series 2
Target: Ras GTPase-activating protein-binding protein 1, full length (G3BP1, Homo sapiens, UniProt Q13283)
UniProt Q13283, sequence (whole entry, looked up): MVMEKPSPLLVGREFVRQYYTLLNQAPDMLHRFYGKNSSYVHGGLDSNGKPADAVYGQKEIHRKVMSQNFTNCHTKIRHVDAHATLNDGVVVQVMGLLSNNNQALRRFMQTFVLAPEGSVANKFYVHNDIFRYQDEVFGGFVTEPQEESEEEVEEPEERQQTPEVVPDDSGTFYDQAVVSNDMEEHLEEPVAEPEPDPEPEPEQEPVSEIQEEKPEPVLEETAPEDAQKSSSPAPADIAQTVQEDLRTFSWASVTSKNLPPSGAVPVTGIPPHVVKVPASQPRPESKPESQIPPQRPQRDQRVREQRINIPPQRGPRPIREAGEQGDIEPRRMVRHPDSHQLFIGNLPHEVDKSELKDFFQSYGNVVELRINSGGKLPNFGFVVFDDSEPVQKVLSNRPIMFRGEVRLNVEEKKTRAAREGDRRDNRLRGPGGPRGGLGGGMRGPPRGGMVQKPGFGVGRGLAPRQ
Technique: RNA Bind-n-Seq
Form: RNA
Matrix: in vitro
Tested at: 200 nM
Notes: whole 134-nt RNA, ends assumed
Added: 150 mM LiCl
Baseline: input library
Direction: higher = stronger binding
All molecules: 7-deaza-guanosine replaces G
Shared flanks, not repeated: GGGAGUUCUACAGUCCGACGAUC … UGGAAUUCUCGGGUGUCAAGG
With `UGGGCGGUGGAUUUUGUUUAUUUUUUUAGCUCAUUUCCAGGGGUGGGAAUUUUUUUUUAAUAUGUGUCAUGAAUAAAGUUGUUUUUGAAA` the log2 enrichment was 0.828.
The log2 enrichment of `UGGCCAUGGUGGCAUGCGGGGAGGAAGAGGUGGCCUCAUGGAUCGUGGUGGUCCCGGUGGAAUGUUCAGAGGUGGCCGUGGUGGAGACAG` is reported as 0.271.
For `CUGUGCUACACAUCGUAUGUACCGAAUCAAAUUUUUUUAAAUUUUUUUAAAUUUUUUUAAAAAAGUAUUAUGUUACGCCGUUCGGAUCUG`, the log2 enrichment was -2.47.
`UCCUGUGCUACACAUCGUAUGUACCGAAUCGGAAAAAAAGGAAAAAAAGGAAAAAAAGGGAAAGUAUUAUGUUACGCCGUUCGGAUCUGC` has a log2 enrichment of -0.592.
`UGUCCCUGGUGGCAUGCGGGGAGGAAGAGGUGGCCUCAUGGAUCGUGGUGGUCCCGGUGGAAUGUUCAGAGGUGGCCGUGGUGGAGACAG` gave a log2 enrichment of 0.467.
`UUAAGGAAGGACACUGAGUCAUGCACAAGUCCUUGCCUUCUUGGUGCCCCUCGGAAAGCACAAGACCCCUCCUCUGCUGGGUGUGAUCAA` has a log2 enrichment of 0.824.
`CACAGACAACACGCACCCACACAGACACAGAGGGAAGGGGGUGGGAUGGGGACAGGGUGCACAGCAGGGCGGGGUAGGACCCCAGCCCCU` has a log2 enrichment of -1.22.
`GCAGGAAGUAAAAACAAAUGGAAAUGCUUCGGAUAGCGGCAGGGGUGGGGGUUGCUAAGGAAAGGGUGGGAUGGGAGUGGGUAAAGAGUU` gave a log2 enrichment of 0.0242.

Series 3
Cell line: HEK-293T/ACE2
Observed: pseudovirus infection
Organism: VSV pseudotyped with SARS-CoV-2 spike
Tested at: concentration not given
Baseline: vehicle-treated
CO[C@H]1C[C@@H]2CC[C@@H](C)[C@@](O)(O2)C(=O)C(=O)N2CCCC[C@H]2C(=O)O[C@H]([C@H](C)C[C@@H]2CC[C@@H](OCCO)[C@H](OC)C2)CC(=O)[C@H](C)/C=C(\C)[C@@H](O)[C@@H](OC)C(=O)[C@H](C)C[C@H](C)/C=C/C=C/C=C/1C has a GFP-positive cells of 109%.
With C[C@@H](O)[C@H]1C(=O)N2C(C(=O)O)=C(S[C@@H]3CN[C@H](CNS(N)(=O)=O)C3)[C@H](C)[C@H]12.O the GFP-positive cells was 92.7%.
CNC(=O)c1cnn(-c2nc(N)c3ncn([C@@H]4O[C@H](CO)[C@@H](O)[C@H]4O)c3n2)c1 has a GFP-positive cells of 82.5%.

Further values, each from its own experiment
Action: inhibitor
For `(-)-epicatechin gallate`, the IC50 was 910 nM (Replicase polyprotein 1ab, nsp13 helicase (rep, Severe acute respiratory syndrome coronavirus 2, UniProt P0DTD1); helicase activity; with DTT).
O=C(O)c1c(Cl)c(Cl)c(Cl)c(Cl)c1-c1c2cc(I)c(=O)c(I)c-2oc2c(I)c(O)c(I)cc12 has an inhibition of 105% (Replicase polyprotein 1ab, nsp12 with nsp7/nsp8 (rep, Severe acute respiratory syndrome coronavirus 2, UniProt P0DTD1); SARS-CoV-2; 20 µM).

Some of these lines once more (series 3):
CO[C@H]1C[C@@H]2CC[C@@H](C)[C@@](O)(O2)C(=O)C(=O)N2CCCC[C@H]2C(=O)O[C@H]([C@H](C)C[C@@H]2CC[C@@H](OCCO)[C@H](OC)C2)CC(=O)[C@H](C)/C=C(\C)[C@@H](O)[C@@H](OC)C(=O)[C@H](C)C[C@H](C)/C=C/C=C/C=C/1C has a GFP-positive cells of 109%.
With C[C@@H](O)[C@H]1C(=O)N2C(C(=O)O)=C(S[C@@H]3CN[C@H](CNS(N)(=O)=O)C3)[C@H](C)[C@H]12.O the GFP-positive cells was 92.7%.
